Measured values collected from several papers.
Compare with care: the assays were run in different laboratories. ± marks the error that the study gave.

SMILES | target or system | test | test system | setting | how to read | endpoint | value
C[n+]1ccc(/C=N/NC(=O)c2cccc(C(=O)N/N=C/c3cc[n+](C)c4ccccc34)n2)c2ccccc21 | hp2 hairpin duplex DNA | FRET melting | – | 1 µM | – | ΔTm | 2.6 ± 1.1 °C
CC(C)(C)c1cc(-c2ccc3cccnc3n2)nc(-c2ccc3cccnc3n2)c1.[Cl-].[Cl-].[Ru+2].c1cnc2c(c1)ccc1cccnc12 | A-375 | resazurin | – | with: light 733 nm, 9 mW, 100 J/cm2 | – | EC50 | 214 ± 6 µM
Cc1ncsc1-c1ccc(C(C)NC(=O)C2CC(O)CN2C(=O)C(NC(=O)CCCCCCCCCCN2CCCC(Nc3ncc(Cl)c(Nc4ccccc4S(=O)(=O)C(C)C)n3)C2)C(C)(C)C)cc1 (centres unmarked) | 22Rv1 | RNA-seq, measured: MED9 mRNA | – | concentration not given | reference: DMSO | log2 fold change | -1.09
CC(C)(C)c1cc(-c2ccc3cc4ccccc4nc3n2)nc(-c2ccc3cc4ccccc4nc3n2)c1.Cc1ccncc1.[Cl-].[Cl-].[Ru+2].c1ccc2cc3nc4c5cccnc5c5ncccc5c4nc3cc2c1 | A-375 | resazurin | – | with: light 733 nm, 9 mW, 100 J/cm2 | – | EC50 | 13.9 µM
O=C(N/N=C/c1ccc2c(ccc[n+]2Cc2ccccc2)c1)c1cc(C(=O)N/N=C/c2ccc3c(ccc[n+]3Cc3ccccc3)c2)ncn1 | MYC parallel G4 DNA | FRET melting | – | 1 µM, DNA 0.2 µM, with: duplex DNA competitor 10 µM | – | ΔTm | 5.5 ± 0.7 °C
CCCNC(=O)[C@H]1O[C@@H]1C(=O)N[C@H](C(=O)N1CCC[C@H]1C(=O)OCC1=C2C(C)=CC(C)=[N+]2[B-](C)(C)n2c(C)cc(C)c21)[C@@H](C)CC | MCF-10A | cell viability, MTT | – | concentration not given, 72 h, irradiated 15 min up to 470 nm | – | EC50 | 3.5 ± 1.3 µM
CN1CC[C@@H](COc2cnc(C#N)cc2-c2ccn3nc(NC(=O)C4CC4)cc3c2)C1 | dendritic cells, mouse, bone marrow-derived | cytokine release increase, measured: IL-10 | – | with: LPS | – | EC50 | 0.67 µM
COC1CN([C@H]2CC[C@H]([C@@]3(C)Oc4c(Cl)cc(C(=O)NCc5c(SC)cc(C)[nH]c5=O)c(C)c4O3)CC2)C1 | – | RNA-seq, measured: C17orf99 mouse homolog | mouse, HT-1376 xenograft, whole blood | dose not given | reference: vehicle | log2 fold change | 0.387
C=C(NC(=O)c1csc(-c2ccc(NC(=O)CCCCCBr)cc2)n1)C(=O)NC(=C)C(=O)OC | ES-2 | cell growth or viability | – | – | – | EC50 | 2.5 µM
CC[C@H]1CN([C@@H](CC)c2ccc(C(F)(F)F)cc2)[C@H](CC)CN1c1nc(=O)n(C)c2ccc(C#N)nc12 | CD8+ T cells | phospho-ERK amplification, flow cytometry | human whole blood | with: suboptimal anti-CD3 | – | EC50 | 0.012 µM
Oc1cccc(-c2cccc(O)n2)n1.[Cl-].[Cl-].[Ru+2].c1ccc(-c2ccnc3c2ccc2c(-c4ccccc4)ccnc23)cc1.c1ccc(-c2ccnc3c2ccc2c(-c4ccccc4)ccnc23)cc1 | MCF-10A | CCK-8 viability | – | dark | – | EC50 | 3.9 µM
CC(C)C[C@H](NC(=O)[C@H](Cc1ccccc1)NC(=O)[C@H](CCONC(=N)N)NC(=O)[C@H](C)N)B(O)O | MM1.S cells | cell viability, CellTiter-Glo | – | single agent | – | EC50 | 0.078 µM
[Cl-].[Cl-].[Ru+2].c1cc(-c2ccc3cccnc3n2)nc(-c2ccc3cccnc3n2)c1.c1ccc2cc3nc4c5cccnc5c5ncccc5c4nc3cc2c1 | A-375 | resazurin | – | with: light 633 nm, 20 mW, 100 J/cm2 | – | EC50 | 20.1 µM
[Cl-].[Cl-].[Ru+2].c1ccc(-c2ccccn2)nc1.c1ccc(-c2ccccn2)nc1.c1ccc2cc3nc4c5cccnc5c5ncccc5c4nc3cc2c1 | SK-MEL-28 | phototoxicity, resazurin | – | normoxia, with: red light 633 nm, 100 J/cm2, 20 mW/cm2 | – | EC50 | 0.613 ± 0.036 µM

Repeated from above:
SMILES | target or system | test | test system | setting | how to read | endpoint | value
Oc1cccc(-c2cccc(O)n2)n1.[Cl-].[Cl-].[Ru+2].c1ccc(-c2ccnc3c2ccc2c(-c4ccccc4)ccnc23)cc1.c1ccc(-c2ccnc3c2ccc2c(-c4ccccc4)ccnc23)cc1 | MCF-10A | CCK-8 viability | – | dark | – | EC50 | 3.9 µM
